# Published values pooled from the literature.
# Protocols differ between the studies behind these lines. Values joined by “and” are separate records of one study, mostly repeats; a detail may differ. Numbers after ± are the reported error.
# UniProt P54760, sequence (whole entry, looked up): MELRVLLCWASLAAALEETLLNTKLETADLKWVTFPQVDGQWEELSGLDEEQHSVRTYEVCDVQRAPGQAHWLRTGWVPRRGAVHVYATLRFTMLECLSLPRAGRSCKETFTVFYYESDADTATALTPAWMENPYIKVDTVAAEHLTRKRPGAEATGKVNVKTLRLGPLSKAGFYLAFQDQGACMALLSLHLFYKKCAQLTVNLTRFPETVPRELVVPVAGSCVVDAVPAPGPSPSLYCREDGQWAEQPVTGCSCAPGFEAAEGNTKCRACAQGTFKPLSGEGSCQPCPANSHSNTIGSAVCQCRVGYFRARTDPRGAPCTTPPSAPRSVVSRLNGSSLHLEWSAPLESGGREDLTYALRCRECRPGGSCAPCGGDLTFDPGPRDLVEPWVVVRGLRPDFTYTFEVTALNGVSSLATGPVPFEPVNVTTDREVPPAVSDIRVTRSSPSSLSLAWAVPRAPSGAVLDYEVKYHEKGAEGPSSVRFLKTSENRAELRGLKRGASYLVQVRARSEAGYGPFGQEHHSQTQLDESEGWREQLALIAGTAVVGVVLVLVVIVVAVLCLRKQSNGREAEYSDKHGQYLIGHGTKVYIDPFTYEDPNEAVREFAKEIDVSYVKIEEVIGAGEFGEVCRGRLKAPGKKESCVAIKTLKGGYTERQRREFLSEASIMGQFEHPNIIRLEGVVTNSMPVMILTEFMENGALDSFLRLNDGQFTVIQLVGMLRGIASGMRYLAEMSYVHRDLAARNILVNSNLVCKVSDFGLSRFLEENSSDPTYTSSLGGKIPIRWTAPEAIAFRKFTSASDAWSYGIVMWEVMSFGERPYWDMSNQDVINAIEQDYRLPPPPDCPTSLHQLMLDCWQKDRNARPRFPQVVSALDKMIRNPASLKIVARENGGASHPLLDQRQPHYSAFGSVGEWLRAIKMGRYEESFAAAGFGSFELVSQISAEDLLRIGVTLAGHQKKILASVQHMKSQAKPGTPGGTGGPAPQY
Structure (SMILES),tested on,assay,system,conditions,scale,quantity,value
Cc1cc(=O)c2c(O)c3c(O[C@@H]4O[C@H](CO)[C@@H](O)[C@H](O)[C@H]4O)cc(O)cc3cc2o1,HK-2 co-cultured with HepaRG,MTT,,"16.67 µM, 48 h",relative to: untreated control,cell viability,90.3 ± 4.81%
C=C(NC(=O)c1csc(-c2nc3c(cc2O)-c2nc(cs2)C(=O)NC(C(C)O)C(=O)NC(=C(C)OC)c2nc(cs2)C(=O)NC2c4nc(cs4)C(=O)NC(COC(=O)c4c5c6c(cccc6n4O)COC(=O)C(OC4CC(C)(O)C(N(C)C)C(C)O4)C2OC5)c2nc-3cs2)n1)C(N)=O (stereo not drawn),,,"female cynomolgus monkey, plasma","intravenous, 3 mg/kg, single dose, infusion",,AUC(0-t),28 µg·h/mL
O=C1NC2(CC2)COc2ncc(F)cc2[C@H]2COCCN2c2ccn3ncc1c3n2,CHL cells,chromosomal aberration test,,"75 µg/mL, 4 h, without S9 mix",relative to: solvent control,relative population doubling,81.5%
CC(C)(C)NCCSS(=O)(=O)O,Schistosoma mansoni,perfusion day 57,infected Swiss Webster mice,100 mg/kg,,body weight,36.4 g and 30.9 g and 40 g
O=C1C2CC3CC1CC(C(=O)N1CCN(c4ccc([N+](=O)[O-])c5ncccc45)CC1)(C3)C2,Salmonella typhimurium,Ames test,TA98,"0.78 µg/well, with S9",relative to: vehicle,revertant fold increase,1.1
N#C[C@@H]1CCCN1C(=O)CNC(=O)c1ccnc2ccc(OCCCN3CCN(C(=O)CCc4ccc5c(c4)CN4CCN(Cc6cc(CCC(=O)O)ccc6O)CC(=O)[O][Al-]([18F])([O]C(=O)C4)[O]5)CC3)cc12 (stereo partly drawn),U-87 MG tumour model,,"host not given, stomach","1 h, tumour-bearing",,tracer uptake,1.32 %ID/g
Cc1ncsc1-c1ccc(C(C)NC(=O)C2CC(O)CN2C(=O)C(NC(=O)CCCCCCCCCCN2CCCC(Nc3ncc(Cl)c(Nc4ccccc4S(=O)(=O)C(C)C)n3)C2)C(C)(C)C)cc1 (stereo not drawn),22Rv1,"RNA-seq, refers to: ZFP62 mRNA",,concentration not given,relative to: DMSO,log2 fold change,-1.68
C[C@@H]1O[C@@H](O[C@@H]2[C@@H](O)[C@H](O)[C@@H](CO)O[C@H]2c2c(O)cc(O)c3c(=O)cc(-c4ccc(O)cc4)oc23)[C@H](O)[C@H](O)[C@H]1O,Caco-2 monolayer,transwell permeability,,"100 µg/mL, apical to basolateral, HBSS, DMSO 1%, together with: digoxin 5 ng/mL",relative to: digoxin alone,Papp increase,12.1%
N#C[C@@H]1CC(F)(F)CN1C(=O)CNC(=O)c1ccnc2c(NC(=O)[C@@H](N)CCCCNC(=O)CCOCCOCCOCCOCCOCCOCCNC(=O)CN3CCN(CC(=O)[O-])CCN(CC(=O)[O-])CCN(CC(=O)[O-])CC3)cccc12.[177Lu+3],U-87 MG tumour model,,"host not given, blood","24 h, tumour-bearing",,tracer uptake,0.01 %ID/g
C=CC(=O)Nc1cccc(Cn2ncc3cnc(Nc4cnn(CCOC)c4)nc32)c1,PKN2 human,"binding, KINOMEscan",,100 nM,lower = stronger binding,percent of control,42%
C=C1CC[C@H](OCCCNC(=O)CCOCCOCCOCCOCCOCCOCCOCCOCCOCCOCCOCCOCCOCCOCCOCCOCCOCCOCCOCCOCCOCCOCCOCCOCCOCCOCCOCCOCCOCCOCCOCCOCCOCCOCCOCCOCCNC(=O)CCN2C(=O)CC(SC[C@H](NC(=O)[C@H](Cc3ccccc3)NC(=O)[C@H](CC(N)=O)NC(=O)[C@H](Cc3c[nH]cn3)NC(=O)[C@@H](NC(=O)[C@H](CC(=O)O)NC(=O)[C@H](CCC(N)=O)NC(=O)[C@H](CC(C)C)NC(=O)[C@H](CCCCN)NC(=O)[C@H](CCCCN)NC(=O)[C@H](CCCNC(=N)N)NC(=O)[C@H](CC(C)C)NC(=O)[C@H](Cc3c[nH]c4ccccc34)NC(=O)[C@H](CCC(=O)O)NC(=O)[C@@H](NC(=O)[C@H](CCCNC(=N)N)NC(=O)[C@H](CCC(=O)O)NC(=O)[C@H](CCSC)NC(=O)[C@H](CO)NC(=O)[C@H](CC(N)=O)NC(=O)[C@H](CC(C)C)NC(=O)[C@H](Cc3c[nH]cn3)NC(=O)[C@H](CCCCN)NC(=O)CNC(=O)[C@H](CC(C)C)NC(=O)[C@H](CC(N)=O)NC(=O)[C@H](Cc3c[nH]cn3)NC(=O)[C@H](CCSC)NC(=O)[C@H](CC(C)C)NC(=O)[C@H](CCC(N)=O)NC(=O)[C@@H](NC(=O)[C@H](CCC(=O)O)NC(=O)[C@H](CO)NC(=O)[C@@H](NC(=O)[C@@H](N)CO)C(C)C)[C@@H](C)CC)C(C)C)C(C)C)C(=O)O)C2=O)C/C1=C/C=C1\CCC[C@]2(C)[C@@H]([C@H](C)CCCC(C)(C)O)CC[C@@H]12 (stereo partly drawn),,,"male Sprague-Dawley rat, plasma","intravenous, 100 µg/kg, single dose",,Cmax,2.56 µg/mL
N=C(N)NCCC[C@@H]1NC(=O)[C@H](CCCNC(=N)N)NC(=O)[C@@H](CCCNC(=N)N)NC(=O)[C@@H](CCCNC(=N)N)NC(=O)[C@@H](C(c2ccccc2)c2ccccc2)NC(=O)[C@@H](Cc2c[nH]c3ccccc23)NC(=O)[C@@H](C(c2ccccc2)c2ccccc2)NC1=O,human liver cells,MTS,,"200 µg/mL, 24 h",,viability,73%
CC(C)OCCOCc1ccc(OCC(O)CN(N=O)C(C)C)cc1 (stereo not drawn),Escherichia coli,Ames test,WP2 uvrA,"50 µg/plate, without metabolic activation",relative to: solvent control,revertant fold increase,1.2 fold
CN1CCCNC(=O)c2cccc(c2)C(=O)NCCCN(C)CCCNc2cccc3c2C(=O)c2cccc(c2C3=O)NCCC1,HEK293,"cell growth or viability, CCK-8",,"15 nM, 48 h",,viability,95.9%
CCN(CC)CC#CCNc1ccnc2cc(Cl)ccc12,Salmonella typhimurium,mini-Ames test,TA102,"1000.0 µg/well, with rat liver S9",,revertants,84 revertants/well and 76 revertants/well
Cc1nn(-c2cccc(N)c2)c(=O)c2cnc(Nc3ccc(N4CCNCC4)cc3)nc12,"EPHB4 (Homo sapiens, UniProt P54760)","kinase activity, inhibitor, SelectScreen kinase profiling",,,,IC50,1.97 µM
COC1CN([C@H]2CC[C@H]([C@@]3(C)Oc4c(Cl)cc(C(=O)NCc5c(SC)cc(C)[nH]c5=O)c(C)c4O3)CC2)C1,,"RNA-seq, refers to: HS2ST1 mouse homolog","mouse, HT-1376 xenograft, whole blood",dose not given,relative to: vehicle,log2 fold change,0.253
CNS(=O)(=O)Nc1nccc(Cc2c(C)c3ccc(Oc4ncccc4F)cc3oc2=O)c1F,RS4-11,"cell viability, inhibitor, CellTiter-Glo",,7 days,,IC50,> 1 µM

# Some of these lines once more:
Structure (SMILES),tested on,assay,system,conditions,scale,quantity,value
N=C(N)NCCC[C@@H]1NC(=O)[C@H](CCCNC(=N)N)NC(=O)[C@@H](CCCNC(=N)N)NC(=O)[C@@H](CCCNC(=N)N)NC(=O)[C@@H](C(c2ccccc2)c2ccccc2)NC(=O)[C@@H](Cc2c[nH]c3ccccc23)NC(=O)[C@@H](C(c2ccccc2)c2ccccc2)NC1=O,human liver cells,MTS,,"200 µg/mL, 24 h",,viability,73%
CC(C)OCCOCc1ccc(OCC(O)CN(N=O)C(C)C)cc1 (stereo not drawn),Escherichia coli,Ames test,WP2 uvrA,"50 µg/plate, without metabolic activation",relative to: solvent control,revertant fold increase,1.2 fold
CN1CCCNC(=O)c2cccc(c2)C(=O)NCCCN(C)CCCNc2cccc3c2C(=O)c2cccc(c2C3=O)NCCC1,HEK293,"cell growth or viability, CCK-8",,"15 nM, 48 h",,viability,95.9%
